Measurements from different studies.
Each line is one published result; not all experiments were run side by side. ± gives the spread as reported.

SMILES | assay | test system | setting | how to read | measurement | result
CCCC[C@H](NC(=O)CNC(=O)CNC(=O)CN1CCN(CC(=O)O)CCN(CC(=O)O)CCN(CC(=O)O)CC1)C(=O)N[C@H]1CC(=O)NCCCC[C@@H](C(N)=O)NC(=O)[C@H](Cc2c[nH]c3ccccc23)NC(=O)[C@H](CCCNC(=N)N)NC(=O)[C@@H](Cc2ccccc2)NC(=O)[C@H](Cc2c[nH]cn2)NC1=O [indium-111 labelled] |  | C57 mouse, B16/F1 melanoma | 24 h | reference: tumour over skin | tumour to skin uptake ratio | 26
NC[C@@H](C(=O)Nc1ccc(-c2cn[nH]c2)cc1)c1ccccc1 | OECD 405 eye irritation | New Zealand White rabbit, eye | topical, 0.1%, 0 h (day 1) | direction not given | total eye irritation score | 0
O=C([O-])CN1CCN(CC(=O)[O-])CCN(CC(=O)NCCc2ccc3c(c2)C2C=CCC2C(c2cc4c(cc2Br)OCO4)N3)CCN(CC(=O)[O-])CC1.[111In+3] (centres unmarked) |  | mice with Hec50 tumour xenograft, Hec50 tumour | 0.5 h |  | tissue uptake | 3.81 ± 0.18 %ID/g
CCNC(=O)c1noc(-c2cc(C(C)C)c(O)cc2O)c1NC(=O)CCN1CCOCC1 |  | CD1 nude mouse A-431 xenograft, plasma | intraperitoneal, 80 mg/kg |  | CL/F | 188 mL/min/kg
Cc1ncc2c(n1)CN(C(=O)Nc1nc(-c3cccs3)ccc1N)C2 |  | male Sprague-Dawley rats | oral, 30 mg/kg daily, day 14 |  | AUC | 8240 ± 1940 ng·h/mL
COc1cc(NC(C)=O)c2c(c1O)-c1c(OC)c(OC)cc3c1C(C2)N(C)CC3 (centres unmarked) |  | rat heart homogenate | 100 µg/mL, 40 d, -20 °C, long-term storage |  | remaining compound | 97.3 ± 3.6%
CC1=CC(C)(C)N=C2C=CC(=O)C=C12 | LC-MS/MS | piglets, subcutaneous fat | oral in feed, 50 mg/kg feed ethoxyquin, 42 days |  | tissue residue | 25.6 ± 9.4 ng/g
CC(C)(O)c1ncc([S@](N)(=O)=NC(=O)Nc2c3c(cc4c2CCC4)CCC3)s1 |  | healthy human, fasted | oral, 100 mg single dose, tablet formulation |  | Cmax | 3750 ng/mL
CN(C)c1ccc(-c2nc3ccc(OCCCCCN4CCN5CCN(CC4)CC(=O)[O][Al]([18F])[O]C(=O)C5)cc3s2)cc1 |  | ICR mouse, spleen | intravenous, 10 min |  | tissue uptake | 6.94 ± 1.83 %ID/g
[O-]c1cccc(-c2cccc([O-])n2)n1.[Ru+2].c1cnc2c(c1)c1c(c3cccnc32)OCCO1.c1cnc2c(c1)c1c(c3cccnc32)OCCO1 | shake flask | octanol/buffer |  |  | logP of basic form | 2
CCCC[C@@H]1NC(=O)[C@@H](NC(=O)[C@H](CCC(=O)O)NC(=O)CNC(=O)CN2CCN(CC(=O)O)CCN(CC(=O)O)CCN(CC(=O)O)CC2)CCCCNC(=O)C[C@@H](C(N)=O)NC(=O)[C@H](C(C)C)NC(=O)[C@@H]2CCCN2C(=O)[C@H](CCCNC(=N)N)NC(=O)CNC(=O)[C@H](Cc2c[nH]c3ccccc23)NC(=O)[C@H](CCCNC(=N)N)NC(=O)[C@@H](Cc2ccccc2)NC(=O)[C@H](Cc2c[nH]cn2)NC(=O)[C@H](CCC(=O)O)NC1=O [gallium-67 labelled] |  | B16/F1 melanoma-bearing C57 mice, intestine | intravenous, 2 h, together with: blocking peptide 10 µg |  | tissue uptake | 0.74 ± 0.1 %ID
CC(NC(=O)OC1OC(C(=O)O)C(O)C(O)C1O)c1cc(Cl)ccc1Cn1c(=S)[nH]c(=O)c2[nH]ccc21 (centres unmarked) |  | Sprague-Dawley rat, both sexes, plasma | oral, 125 mg/kg/day | reference: rat over human clinical doses | exposure ratio | ≥ 1.4
OC[C@@H]1[C@@H](O)[C@H](O)[C@@H](O)c2nccn21 |  |  |  |  | pKa of conjugate acid | 6.2
CC[N+]1=C(C=CC=CC=C2N(CCCCCC(=O)O)c3ccc4c(S(=O)(=O)[O-])cc(S(=O)(=O)[O-])cc4c3C2(C)C)C(C)(C)c2c1ccc1c(S(=O)(=O)[O-])cc(S(=O)(=O)[O-])cc21.[K+].[K+].[K+] |  | 100% serum | pH 7.4 |  | extinction coefficient | 250000 M⁻¹ cm⁻¹
Cc1c(Cl)c(C)[n+]([O-])c(Cl)c1-c1no[14c](-c2cc(O)c(O)c([N+](=O)[O-])c2)n1 |  | human, male, urine, faeces, expired air | oral, 100 mg, 144 h | reference: dose | total radioactivity recovered | > 90%
[11CH3]c1ccc2nc(C3CCC3)n(-c3ccc4[nH]ncc4c3)c2n1 | extrapolated from mouse | standard human, stomach wall |  |  | absorbed dose | 5.8 µSv/MBq
NC12CNCCNCC(NCc3ccc(CNC(=O)CCCC(=O)NCc4ccc(-c5nncnn5)cc4)cc3)(CNCCNC1)CNCCNC2.[64Cu+2] | OLINDA dosimetry | lower large intestine wall | pretargeting, 120-h interval |  | mean absorbed dose | 0.04 rad/mCi
COCC1CN(C2CCN(c3cc(OC)c(Nc4ncc(Br)c(Nc5ccc6c(c5P(C)(C)=O)OCCO6)n4)cc3C)CC2)C1 |  | human | oral, 10 to 240 mg once daily, safety set, grade ≥3 |  | patients with vomiting | 3.7%
N=C(N)NCCC[C@@H]1NC(=O)[C@H](Cc2c[nH]c3ccccc23)NC(=O)[C@@H](CC2CCCCC2)NC(=O)[C@@H]2CCCN2C(=O)[C@@H](NC(=O)CCc2ccccc2)CCCNC1=O |  | C57BL/6J mouse, spinal cord | subcutaneous, 1 mg/kg, single dose, two-compartment model |  | distribution rate constant (K12) | 0.08 h⁻¹
C[C@]12C[C@H](c3ccccc3)C3=C4CCC(=O)C=C4CC[C@H]3[C@@H]1CC[C@@]2(O)C(F)(F)C(F)(F)F |  | human liver microsomes | 100 % absorption assumed |  | maximal oral bioavailability | 79%
Cc1ccc(/N=N/c2c(O)ccc3ccccc23)c(C)c1 |  | rat whole blood QC samples | 5.0 µg/L, 4 h, room temperature, short-term stability |  | measured concentration | 4.95 µg/L
CC(C)(C)NCC(=O)O | shake flask | water | 24 h |  | logP | -1.91
CCCC[C@H](NC(=O)CNC(=O)CNC(=O)CN1CCN(CC(=O)O)CCN(CC(=O)O)CCN(CC(=O)O)CC1)C(=O)N[C@H]1CC(=O)NCCCC[C@@H](C(N)=O)NC(=O)[C@H](Cc2c[nH]c3ccccc23)NC(=O)[C@H](CCCNC(=N)N)NC(=O)[C@@H](Cc2ccccc2)NC(=O)[C@H](Cc2c[nH]cn2)NC1=O [copper-64 labelled] |  | C57 mouse female B16/F1 melanoma, urine | intravenous, 0.037 MBq, 24 h |  | urinary excretion | 67.4 ± 1.55%
O=c1nc(NO)ccn1[C@@H]1O[C@H](CO)[C@@H](O)[C@H]1O | measured: CYP3A4 | rat, arthritis model, liver | oral, 80 mg/kg twice daily, 5 days | reference: untreated arthritic rats | protein level | 2.3 fold
Cc1c(C(=O)Nc2ccn(C)n2)ncn1Cc1cccc(C(F)(F)F)c1 |  | C57BL/6 mice, non-transgenic, liver | oral, drinking water, 50 mg/kg daily, 10 days |  | concentration at time point | 1250 ± 291 ng/g
CC[C@H](C)[C@H](NC(=O)[C@@H]1CCCN1C(=O)CNC(=O)[C@H](Cc1ccccc1)NC(=O)[C@H](CC(N)=O)NC(=O)[C@H](CC(N)=O)NC(=O)[C@H](CO)NC(=O)[C@H](CO)NC(=O)[C@H](Cc1c[nH]cn1)NC(=O)[C@@H](NC(=O)[C@H](CC(C)C)NC(=O)[C@H](Cc1ccccc1)NC(=O)[C@H](CC(N)=O)NC(=O)[C@H](C)NC(=O)[C@H](CC(C)C)NC(=O)[C@H](CCCNC(=N)N)NC(=O)[C@H](CCC(N)=O)NC(=O)[C@@H](NC(=O)[C@H](C)NC(=O)[C@@H]1CSSC[C@H](NC(=O)[C@@H](N)CCCCN)C(=O)N[C@@H](CC(N)=O)C(=O)N[C@@H]([C@@H](C)O)C(=O)N[C@@H](C)C(=O)N[C@@H]([C@@H](C)O)C(=O)N1)[C@@H](C)O)C(C)C)C(=O)N[C@@H](CC(C)C)C(=O)N[C@@H](CO)C(=O)N[C@@H](CO)C(=O)N[C@H](C(=O)N[C@@H](CC(N)=O)C(=O)N[C@H](C(=O)NCC(=O)N[C@@H](CO)C(=O)N[C@@H](CC(N)=O)C(=O)N[C@H](C(=O)N[C@@H](Cc1ccc(O)cc1)C(N)=O)[C@@H](C)O)C(C)C)[C@@H](C)O | ion mobility mass spectrometry | nitrogen drift gas | dimer ion charge +4 |  | collision cross section | 880 ± 2.3 Å²
Cc1ccc(OCC(=O)O)cc1 |  | Sprague-Dawley rat Crl:CD(SD), female, plasma | oral, 100 mg/kg/day of parent drug, day 90, 90-day repeated dosing |  | t1/2 | 3.32 h
CC(C)[C@H](NC(=O)[C@@H]1CCCN1C(=O)[C@H](CCCNC(=N)N)NC(=O)[C@H](CS)NC(=O)[C@H](Cc1c[nH]c2ccccc12)NC(=O)[C@H](CCCNC(=N)N)NC(=O)[C@@H](Cc1ccccc1)NC(=O)[C@H](Cc1c[nH]cn1)NC(=O)[C@H](CCC(=O)O)NC(=O)[C@H](CS)NC(=O)[C@H](CS)NC(=O)[C@@H]1CC(=O)N[C@@H](CCCNC(=N)N)C(=O)NCC(=O)N[C@@H](CC(=O)O)C(=O)N[C@H](Cc2ccc(O)cc2)C(=O)N1)C(N)=O [technetium-99m labelled] |  | C57 mice B16/F1 melanoma female | iv, 2 h, together with: NDP-MSH blockade | reference: tumour over kidneys | tumour-to-tissue ratio | 0.19
COCCN(CC(N)=O)C(=O)CN(CCOC)C(=O)CN(CCOC)C(=O)CN(CCOC)C(=O)CN(CCOC)C(=O)CN(CCOC)C(=O)CN(CCOC)C(=O)CN(CCCCC(N)C(=O)O)C(=O)CN(CCOC)C(=O)CN(CCOC)C(=O)CN(CCOC)C(=O)CN(CCOC)C(=O)CN(CCOC)C(=O)CN(CCOC)C(=O)C(Cc1ccccc1)NC(C)=O (centres unmarked) | potentiometric titration with KOH | 100 x 1 mM KCl |  |  | pKa of NH2 group | 9.5
